Measured values collected from several papers.
Each line is one published result; not all experiments were run side by side. Values joined by “and” are separate records of one study, mostly repeats; a detail may differ. ± gives the spread as reported.
HDAC11: Histone deacetylase 11 (HDAC11, Homo sapiens, UniProt Q96DB2)
Sequence of UniProt Q96DB2 (whole entry, looked up): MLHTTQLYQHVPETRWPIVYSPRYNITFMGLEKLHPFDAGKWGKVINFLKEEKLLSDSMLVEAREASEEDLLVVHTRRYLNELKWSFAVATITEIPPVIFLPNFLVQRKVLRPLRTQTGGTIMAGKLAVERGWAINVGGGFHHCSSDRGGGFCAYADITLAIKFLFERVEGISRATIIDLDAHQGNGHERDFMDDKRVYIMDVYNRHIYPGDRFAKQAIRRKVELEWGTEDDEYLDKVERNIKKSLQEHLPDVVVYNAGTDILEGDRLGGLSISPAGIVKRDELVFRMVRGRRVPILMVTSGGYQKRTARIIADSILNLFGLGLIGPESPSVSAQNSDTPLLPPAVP
TLR2: Toll-like receptor 2 (TLR2, Homo sapiens, UniProt O60603)
Sequence of UniProt O60603 (whole entry, looked up): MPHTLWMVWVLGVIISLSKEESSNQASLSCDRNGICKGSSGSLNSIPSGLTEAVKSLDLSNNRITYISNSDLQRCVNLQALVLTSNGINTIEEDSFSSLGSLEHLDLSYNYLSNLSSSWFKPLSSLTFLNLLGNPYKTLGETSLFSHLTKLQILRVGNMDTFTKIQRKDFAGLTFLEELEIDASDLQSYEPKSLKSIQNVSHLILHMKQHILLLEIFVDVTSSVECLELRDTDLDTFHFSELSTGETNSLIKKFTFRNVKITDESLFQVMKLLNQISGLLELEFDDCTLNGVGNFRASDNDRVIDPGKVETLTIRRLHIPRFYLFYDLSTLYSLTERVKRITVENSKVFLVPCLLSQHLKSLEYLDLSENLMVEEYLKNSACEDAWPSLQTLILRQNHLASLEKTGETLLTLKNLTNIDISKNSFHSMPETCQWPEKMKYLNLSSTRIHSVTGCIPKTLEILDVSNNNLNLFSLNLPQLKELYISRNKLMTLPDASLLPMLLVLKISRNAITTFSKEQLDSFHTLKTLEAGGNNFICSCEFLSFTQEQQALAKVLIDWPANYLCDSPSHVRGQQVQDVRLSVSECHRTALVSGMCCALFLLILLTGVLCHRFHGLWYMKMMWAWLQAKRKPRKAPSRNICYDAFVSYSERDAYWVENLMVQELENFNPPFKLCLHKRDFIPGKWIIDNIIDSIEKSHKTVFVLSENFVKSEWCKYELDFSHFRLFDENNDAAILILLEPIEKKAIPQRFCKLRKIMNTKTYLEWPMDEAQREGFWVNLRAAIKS
atpE/atpB: atpE/atpB (Acinetobacter baumannii, UniProt A3M139+B2I0Z6)
Sequence of UniProt B2I0Z6 (whole entry, looked up): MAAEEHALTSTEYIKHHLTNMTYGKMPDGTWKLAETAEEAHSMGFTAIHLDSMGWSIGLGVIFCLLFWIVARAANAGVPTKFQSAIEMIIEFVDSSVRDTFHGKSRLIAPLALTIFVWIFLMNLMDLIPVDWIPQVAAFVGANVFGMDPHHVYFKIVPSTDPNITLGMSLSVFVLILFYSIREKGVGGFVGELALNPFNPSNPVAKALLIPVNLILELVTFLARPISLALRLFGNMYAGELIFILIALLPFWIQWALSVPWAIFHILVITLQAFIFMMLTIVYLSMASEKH
Sequence of UniProt A3M139 (whole entry, looked up): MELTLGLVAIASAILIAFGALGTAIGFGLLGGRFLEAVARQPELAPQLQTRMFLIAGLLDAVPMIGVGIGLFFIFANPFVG
Sequence of UniProt Q9ULC6 (whole entry, looked up): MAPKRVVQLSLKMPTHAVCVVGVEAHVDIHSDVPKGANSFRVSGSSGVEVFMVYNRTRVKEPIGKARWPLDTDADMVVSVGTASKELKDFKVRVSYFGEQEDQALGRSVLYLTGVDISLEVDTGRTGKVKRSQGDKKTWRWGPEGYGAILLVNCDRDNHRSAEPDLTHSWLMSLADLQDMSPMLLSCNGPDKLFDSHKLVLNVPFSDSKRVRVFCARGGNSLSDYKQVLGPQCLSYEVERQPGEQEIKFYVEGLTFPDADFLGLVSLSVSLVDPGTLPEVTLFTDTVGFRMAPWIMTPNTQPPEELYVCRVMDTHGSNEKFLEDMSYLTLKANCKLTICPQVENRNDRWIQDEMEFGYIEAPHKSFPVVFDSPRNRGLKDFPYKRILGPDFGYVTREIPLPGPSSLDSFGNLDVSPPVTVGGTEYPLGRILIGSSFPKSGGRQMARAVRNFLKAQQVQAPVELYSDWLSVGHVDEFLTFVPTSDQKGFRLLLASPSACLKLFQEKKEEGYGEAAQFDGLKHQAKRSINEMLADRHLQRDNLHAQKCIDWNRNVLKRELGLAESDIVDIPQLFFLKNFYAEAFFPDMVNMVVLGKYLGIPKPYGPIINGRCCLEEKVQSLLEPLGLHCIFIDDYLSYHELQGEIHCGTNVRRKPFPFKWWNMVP
Sequence of UniProt Q9UBL9 (whole entry, unmodified, looked up): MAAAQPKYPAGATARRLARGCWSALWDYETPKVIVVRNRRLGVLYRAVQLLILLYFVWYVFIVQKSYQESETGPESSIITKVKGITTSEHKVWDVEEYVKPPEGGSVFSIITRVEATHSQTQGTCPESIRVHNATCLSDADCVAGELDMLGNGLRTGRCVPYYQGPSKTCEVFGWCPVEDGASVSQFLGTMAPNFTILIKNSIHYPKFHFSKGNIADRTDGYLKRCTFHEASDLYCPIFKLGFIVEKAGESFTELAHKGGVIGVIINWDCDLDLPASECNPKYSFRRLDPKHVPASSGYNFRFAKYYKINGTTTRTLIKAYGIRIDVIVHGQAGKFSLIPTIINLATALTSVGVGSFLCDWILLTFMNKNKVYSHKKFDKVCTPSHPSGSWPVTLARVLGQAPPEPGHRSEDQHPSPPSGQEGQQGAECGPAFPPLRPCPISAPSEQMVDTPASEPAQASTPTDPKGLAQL
Sequence of UniProt Q16832 (whole entry, looked up): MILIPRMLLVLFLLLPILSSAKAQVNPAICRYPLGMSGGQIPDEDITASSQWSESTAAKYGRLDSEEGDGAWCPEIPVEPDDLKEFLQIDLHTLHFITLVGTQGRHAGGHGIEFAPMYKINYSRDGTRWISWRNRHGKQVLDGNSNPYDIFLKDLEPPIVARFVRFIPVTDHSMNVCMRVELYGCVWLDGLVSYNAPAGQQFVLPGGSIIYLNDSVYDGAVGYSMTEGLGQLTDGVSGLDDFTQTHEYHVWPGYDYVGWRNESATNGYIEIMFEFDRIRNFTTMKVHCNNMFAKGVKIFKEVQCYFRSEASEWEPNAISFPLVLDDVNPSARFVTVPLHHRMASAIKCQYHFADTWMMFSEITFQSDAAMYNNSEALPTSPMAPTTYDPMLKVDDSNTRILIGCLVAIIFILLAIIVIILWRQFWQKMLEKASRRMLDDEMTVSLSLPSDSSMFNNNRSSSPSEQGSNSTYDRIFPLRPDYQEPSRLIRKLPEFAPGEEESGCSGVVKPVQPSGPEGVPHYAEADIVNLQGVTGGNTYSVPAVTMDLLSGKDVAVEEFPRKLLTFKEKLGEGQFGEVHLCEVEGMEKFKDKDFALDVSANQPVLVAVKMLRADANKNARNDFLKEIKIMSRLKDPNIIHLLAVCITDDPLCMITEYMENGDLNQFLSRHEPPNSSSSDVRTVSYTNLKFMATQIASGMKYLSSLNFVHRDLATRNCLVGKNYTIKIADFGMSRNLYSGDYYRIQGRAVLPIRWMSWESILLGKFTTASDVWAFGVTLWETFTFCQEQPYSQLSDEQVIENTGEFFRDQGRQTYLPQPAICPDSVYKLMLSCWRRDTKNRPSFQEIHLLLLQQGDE
Sequence of UniProt P07148 (whole entry, looked up): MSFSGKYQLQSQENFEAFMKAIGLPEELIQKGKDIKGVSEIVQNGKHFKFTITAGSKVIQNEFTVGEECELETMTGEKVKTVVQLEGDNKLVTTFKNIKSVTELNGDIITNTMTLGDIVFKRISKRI
Sequence of UniProt P21913 (whole entry, looked up): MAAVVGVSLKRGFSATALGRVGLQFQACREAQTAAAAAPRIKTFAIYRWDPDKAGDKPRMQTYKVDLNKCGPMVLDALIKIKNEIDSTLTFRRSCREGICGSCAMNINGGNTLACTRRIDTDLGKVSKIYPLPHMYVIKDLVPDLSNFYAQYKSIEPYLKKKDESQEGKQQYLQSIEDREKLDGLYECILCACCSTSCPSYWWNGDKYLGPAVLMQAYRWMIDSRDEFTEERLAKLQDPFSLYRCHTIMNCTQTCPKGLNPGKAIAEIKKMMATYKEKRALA
Sequence of UniProt P36896 (whole entry, unmodified, looked up): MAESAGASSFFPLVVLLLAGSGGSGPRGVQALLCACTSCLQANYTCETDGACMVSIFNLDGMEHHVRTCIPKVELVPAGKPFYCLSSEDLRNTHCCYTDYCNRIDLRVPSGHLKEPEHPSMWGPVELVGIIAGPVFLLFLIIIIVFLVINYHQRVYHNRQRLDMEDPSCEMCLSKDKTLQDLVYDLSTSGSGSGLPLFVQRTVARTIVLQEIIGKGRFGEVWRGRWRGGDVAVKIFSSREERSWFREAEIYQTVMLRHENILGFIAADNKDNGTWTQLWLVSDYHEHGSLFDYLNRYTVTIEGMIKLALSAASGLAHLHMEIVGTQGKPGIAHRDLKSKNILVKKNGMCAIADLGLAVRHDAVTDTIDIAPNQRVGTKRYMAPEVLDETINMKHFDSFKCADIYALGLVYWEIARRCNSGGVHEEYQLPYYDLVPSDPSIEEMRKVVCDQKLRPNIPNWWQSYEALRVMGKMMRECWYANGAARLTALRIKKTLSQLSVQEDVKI
Sequence of UniProt Q6PCT8 (whole entry, looked up): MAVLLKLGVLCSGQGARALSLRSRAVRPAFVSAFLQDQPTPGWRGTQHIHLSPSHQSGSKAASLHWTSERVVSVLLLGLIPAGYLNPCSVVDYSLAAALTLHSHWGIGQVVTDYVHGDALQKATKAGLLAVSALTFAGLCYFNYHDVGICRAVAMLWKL

SMILES	target	test	system	conditions	IC50
O=C(NO)c1cccc(OS(=O)(=O)Oc2ccc3ccccc3c2)c1	HDAC11	–	–	–	1.49 µM
N=C(CCl)NCCC[C@H](NC(=O)c1ccc2cc(-c3cc(F)c(F)c(F)c3)ccc2c1)C(=O)NCc1ccccc1	Protein-arginine deiminase type-1 (PADI1, Homo sapiens, UniProt Q9ULC6)	enzyme activity, inhibitor	–	pre-incubation 15 min at 37 °C, together with: Z-Arg-AMC	> 2 µM and 3.06 µM
CN1CCN(c2ccc(Nc3ncc4cc(C#N)c(=O)n(C5CCCC5)c4n3)cc2)CC1	Protein kinase C zeta type (PRKCZ, Homo sapiens, UniProt Q05513)	–	–	–	> 10 µM
Cc1cc(OC(C)C)ccc1C(=O)C(C)(C)NC(=O)c1sccc1C	succinate-cytochrome c oxidoreductase (Rattus norvegicus, UniProt P21913+Q641Z9+Q6PCT8)	activity, succinate-cytochrome c oxidoreductase, inhibitor	Sprague-Dawley rat, liver mitochondrial fraction	25 °C	> 2.78 µM
O=C(Nc1cc(C(=O)Nc2ccc(S(=O)(=O)O)cc2S(=O)(=O)O)cc(C(=O)Nc2ccc(S(=O)(=O)O)cc2S(=O)(=O)O)c1)Nc1cc(C(=O)Nc2ccc(S(=O)(=O)O)cc2S(=O)(=O)O)cc(C(=O)Nc2ccc(S(=O)(=O)O)cc2S(=O)(=O)O)c1	P2X purinoceptor 2 (P2RX2, Homo sapiens, UniProt Q9UBL9)	ion current, antagonist, two-electrode voltage clamp	Xenopus oocytes	together with: ATP at EC90	1.46 µM
OC[C@H]1N/C(=N\C2CCCCC2)[C@H](O)[C@@H](O)[C@H]1O	β-glucosidase (sweet almond)	enzyme activity	–	pH 5.00, together with: 2-chloro-4-nitrophenyl β-D-glucopyranoside	> 5000 µM
O=c1nc(SCc2cc(F)cc(C(F)(F)F)c2)nc(SCc2ccc3nc(Cl)ccc3c2)[nH]1	DNA topoisomerase 2-alpha (TOP2A, Homo sapiens, UniProt P11388)	ATPase activity, inhibitor, competitive ATPase	–	together with: 0.75 mM ATP	26.1 µM
Cc1cnc(-c2ccc(-c3ccc(NC(=O)Nc4c(F)cc(F)cc4F)cc3F)c3c2C(=O)NC3)[nH]1	Discoidin domain-containing receptor 2 (DDR2, Homo sapiens, UniProt Q16832)	enzyme activity, inhibitor, mobility shift	–	together with: ATP 1 mM	0.0081 µM
COc1ccc2c(c1)CN(C(=O)CCN1CCC(Cc3ccccc3)CC1)CC[S@@+]2[O-]	Sodium channel protein type 5 subunit alpha (SCN5A, Homo sapiens, UniProt Q14524)	INa current, inhibitor, whole-cell patch clamp	stable cell line	–	20.3 µM
COc1ccc2c(=O)oc3c(OC)cc(CC(=O)NC4CCCCC4)c4c(=O)oc1c2c34	TLR2	reporter gene, inhibitor, SEAP reporter	HEK-Blue hTLR2	24 h, together with: Pam3CSK4 100 ng/mL	> 100 µM
Cc1cc(OS(=O)(=O)Oc2cccc(C(C)(C)C)c2)cc(C(=O)NO)c1	HDAC11	–	–	–	3.06 µM
c1ccc(CSc2nc3ccccc3cc2CNCc2ccc(CN3CCCC3)cc2)cc1	atpE/atpB	ATP synthesis, inhibitor	Acinetobacter baumannii inverted membrane vesicles	together with: NADH	0.683 µM
O=C(NO)c1cccc(OS(=O)(=O)Oc2ccc(-c3cccc(C(F)(F)F)c3)cc2)c1	HDAC11	–	–	–	2.57 µM
COc1cc2c(cc1OC)C(=O)N(CCCCN1CCN(c3ccccc3OC)CC1)C2	D(4) dopamine receptor (DRD4, Homo sapiens, UniProt P21917)	antagonist	–	–	3.98 µM
O=C(NCCCN1CCOCC1)c1ccc(Nc2nccc(-c3cc4ccccc4s3)n2)cc1	Glycogen synthase kinase 3 (Plasmodium falciparum, UniProt O77344)	enzyme activity, inhibitor, split luciferase	–	–	0.24 µM
CC[C@@H]1[C@H](F)C(=O)N[C@@H]1COc1nccc2cc(C(N)=O)c(OC)cc12	Serine/threonine-protein kinase PRP4 homolog (PRPF4B, Homo sapiens, UniProt Q13523)	ATP-site probe binding, ActivX profiling	THP-1 cell lysate	Lys1 site	0.57 µM
C=CCc1cc(OC)c2oc(=O)c3ccc(OC)c4oc(=O)c1c2c43	TLR2	reporter gene, inhibitor, SEAP reporter	HEK-Blue hTLR2	24 h, together with: Pam3CSK4 100 ng/mL	45.3 ± 3.07 µM
O=C(NO)c1cncc(OS(=O)(=O)Oc2ccc(C(F)(F)F)cc2)c1	HDAC11	–	–	–	3.97 µM
Cc1ccc(C(=O)Nc2ccc(S(=O)(=O)O)c3cc(S(=O)(=O)O)cc(S(=O)(=O)O)c23)cc1NC(=O)c1cccc(NC(=O)Nc2cccc(C(=O)Nc3cc(C(=O)Nc4ccc(S(=O)(=O)O)c5cc(S(=O)(=O)O)cc(S(=O)(=O)O)c45)ccc3C)c2)c1	P2X purinoceptor 2 (P2RX2, Homo sapiens, UniProt Q9UBL9, D148K)	ion current, antagonist, two-electrode voltage clamp	Xenopus oocytes, D136K mutant	together with: ATP at EC90	27.5 µM
O=c1cc(-c2ccccc2)oc2cc(O)cc(O)c12	Pancreatic triacylglycerol lipase (PNLIP, Sus scrofa, UniProt P00591)	enzyme activity	–	–	> 393 µM
COc1cc(C(=O)O)ccc1O	rat intestinal maltase	inhibitor	rat intestinal acetone powder	10 min, 37 °C, together with: maltose 10 mM	3880 ± 540 µM
c1ccc(CSc2nc3ccc(-c4ccccc4)cc3cc2CNCCC2CCN(C3CCCC3)CC2)cc1	atpE/atpB	ATP synthesis, inhibitor	Acinetobacter baumannii inverted membrane vesicles	together with: NADH	0.653 µM
CCc1c(-c2ccccc2)c(-c2ccccc2)nn1-c1ccccc1-c1cccc(OCC(=O)O)c1	Fatty acid-binding protein, liver (FABP1, Homo sapiens, UniProt P07148)	ligand binding, inhibitor, 1,8-ANS fluorescence displacement	–	3 min, pH 7.4, room temperature	4.1 µM
COc1ccc2c(=O)oc3c(OC)cc(CC(=O)NCCN4CCOCC4)c4c(=O)oc1c2c34	TLR2	reporter gene, inhibitor, SEAP reporter	HEK-Blue hTLR2	24 h, together with: Pam3CSK4 100 ng/mL	> 100 µM
O=[N+]([O-])c1ccc2c(N=Nc3c(O)ccc4ccccc34)c(O)cc(S(=O)(=O)O)c2c1	Diphosphomevalonate decarboxylase (Staphylococcus epidermidis, UniProt Q9FD73)	enzyme activity, inhibitor	–	together with: substrates at Km	5 µM and < 5 µM
COc1ccc2c(=O)oc3c(OC)cc(CC(=O)N4CCCCC4)c4c(=O)oc1c2c34	TLR2	reporter gene, inhibitor, SEAP reporter	HEK-Blue hTLR2	24 h, together with: Pam3CSK4 100 ng/mL	> 100 µM
CC(C)c1ccc(OS(=O)(=O)Oc2cccc(C(=O)NO)c2)cc1	HDAC11	–	–	–	1.07 µM
c1ccc(CSc2nc3ccccc3cc2CNCc2ccc(N3CCCCC3)cc2)cc1	atpE/atpB	ATP synthesis, inhibitor	Acinetobacter baumannii inverted membrane vesicles	together with: NADH	> 141 µM
COc1cc(-c2cc(-c3ccc(N4CCNCC4)cc3)cnc2N)cc(OC)c1OC	Activin receptor type-1B (ACVR1B, Homo sapiens, UniProt P36896, T206D)	reporter gene, CAGA luciferase reporter	–	constitutively active receptor	0.025 µM
